Results from different studies.
Protocols differ between the studies behind these lines. ± gives the spread as reported.
Sequence of UniProt Q9Y2K6 (whole entry, looked up): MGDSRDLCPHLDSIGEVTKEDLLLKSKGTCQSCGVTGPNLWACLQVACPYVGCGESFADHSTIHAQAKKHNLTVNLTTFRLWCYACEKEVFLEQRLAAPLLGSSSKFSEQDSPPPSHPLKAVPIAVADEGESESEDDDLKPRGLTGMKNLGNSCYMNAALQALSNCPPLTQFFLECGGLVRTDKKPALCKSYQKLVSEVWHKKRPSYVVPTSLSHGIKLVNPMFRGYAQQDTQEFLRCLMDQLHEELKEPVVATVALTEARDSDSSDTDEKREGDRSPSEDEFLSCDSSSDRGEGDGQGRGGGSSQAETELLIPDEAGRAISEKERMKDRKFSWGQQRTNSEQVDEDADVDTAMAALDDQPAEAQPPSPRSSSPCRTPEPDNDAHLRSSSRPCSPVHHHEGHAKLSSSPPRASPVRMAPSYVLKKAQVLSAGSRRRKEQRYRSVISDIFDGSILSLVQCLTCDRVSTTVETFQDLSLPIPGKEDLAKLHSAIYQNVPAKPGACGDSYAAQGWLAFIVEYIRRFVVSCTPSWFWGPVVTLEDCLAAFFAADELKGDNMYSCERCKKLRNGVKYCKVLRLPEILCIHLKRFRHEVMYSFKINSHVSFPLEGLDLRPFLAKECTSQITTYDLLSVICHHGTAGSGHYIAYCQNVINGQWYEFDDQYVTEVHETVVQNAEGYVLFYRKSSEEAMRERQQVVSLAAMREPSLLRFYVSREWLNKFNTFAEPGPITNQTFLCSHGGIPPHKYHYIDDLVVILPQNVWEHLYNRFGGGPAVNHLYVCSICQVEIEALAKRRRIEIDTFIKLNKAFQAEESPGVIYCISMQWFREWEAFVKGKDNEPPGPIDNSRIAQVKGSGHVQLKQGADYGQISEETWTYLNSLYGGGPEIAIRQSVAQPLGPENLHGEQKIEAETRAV
Sequence of UniProt Q70CQ1 (whole entry, looked up): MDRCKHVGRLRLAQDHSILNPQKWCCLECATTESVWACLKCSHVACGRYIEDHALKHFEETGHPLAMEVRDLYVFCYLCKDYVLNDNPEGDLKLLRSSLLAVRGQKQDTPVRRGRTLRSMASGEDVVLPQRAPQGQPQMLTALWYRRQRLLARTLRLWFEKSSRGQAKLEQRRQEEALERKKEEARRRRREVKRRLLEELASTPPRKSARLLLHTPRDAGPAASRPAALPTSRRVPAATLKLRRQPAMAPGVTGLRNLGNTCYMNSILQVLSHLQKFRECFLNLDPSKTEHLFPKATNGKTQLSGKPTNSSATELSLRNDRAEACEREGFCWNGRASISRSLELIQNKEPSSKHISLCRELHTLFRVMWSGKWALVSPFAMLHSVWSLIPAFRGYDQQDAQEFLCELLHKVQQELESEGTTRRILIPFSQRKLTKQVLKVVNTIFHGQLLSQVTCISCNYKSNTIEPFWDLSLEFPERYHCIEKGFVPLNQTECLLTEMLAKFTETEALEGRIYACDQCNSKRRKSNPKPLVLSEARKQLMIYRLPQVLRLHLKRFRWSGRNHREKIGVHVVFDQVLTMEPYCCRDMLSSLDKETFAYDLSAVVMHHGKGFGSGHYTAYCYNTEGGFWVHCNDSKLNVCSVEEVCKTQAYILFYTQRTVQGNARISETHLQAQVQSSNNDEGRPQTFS

| Compound | tested on | test | test system | setting | scale | quantity | result |
| --- | --- | --- | --- | --- | --- | --- | --- |
| C[C@@H]1CN(CC(=O)N2CC(C)(C)c3nc(CO)c(Cc4ccc(F)cc4)cc32)[C@@H](CN2CCOC[C@H]2C)CN1 |  |  | Sprague Dawley rat, male, bile duct cannulated, urine | intravenous, 5 mg/kg |  | renal clearance | 0.78 L/h/kg |
| CCN1/C(=C/C(C)=O)Sc2ccc(F)cc21 |  |  | cynomolgus monkey | oral, 10 mg/kg, 0.5 h post-dose |  | mean blood pressure | 87 ± 4 mmHg |
| O=C1CC[C@H](N2Cc3cc(N4CCN(CC5CCN(c6ccc([C@@H]7c8ccc(O)cc8CC[C@@H]7c7ccccc7)cc6)CC5)CC4)ccc3C2=O)C(=O)N1 |  |  | human | oral, 200 mg, together with: rosuvastatin 10 mg |  | participants with TRAEs | 16.7% |
| CCOC(=O)N1C[C@@H](c2ccccc2O)N[C@@H](c2ccc(C(F)(F)F)cc2)C1 |  | shake-flask, 1-octanol/buffer |  | pH 7.4 |  | logD | > 4.7 |
| CN(CCC#N)C1CCN(C(=O)Cn2cc(NC(=O)c3cnn4cccnc34)c(-c3cc(Cl)ccc3OC(F)F)n2)CC1 |  |  | human | 15 mg twice daily, day 42 | reference: baseline | LDL cholesterol change | -3.9 mg/dL |
| Cc1c(Cl)c(C)[n+]([O-])c(Cl)c1-c1noc(-c2cc(O)c(O)c([N+](=O)[O-])c2)n1 |  | glucuronidation, substrate | human intestinal microsomes | pH 7.5 |  | Km | 41.9 ± 26.9 µM |
| COc1ccc(-n2nc(C(N)=O)c3c2C(=O)N(c2ccc(N4CCCCC4=O)cc2)CC3)cc1 |  |  | human, plasma | oral, Base population PK model |  | absorption rate constant | 0.496 ± 0.0226 h⁻¹ |
| Cc1ccc([C@@H]2O[C@H](CO)[C@@H](O)[C@H](O)[C@H]2O)cc1Cc1ccc(-c2ccc(F)cc2)s1 |  |  | Japanese type 2 diabetes patients | 200 mg, day 4, 24 h urine collection | reference: baseline | urinary chloride excretion change | -15.4 mEq |
| O=C(Cc1ccc(OC(F)(F)F)cc1)Nc1cc(C2CC2)[nH]n1 |  |  | octanol/buffer | 67 µM, pH 7.4 |  | logD | 3.94 |
| CCc1c2c(nc3ccc(OC(=O)N4CCC(N5CCCCC5)CC4)cc13)-c1cc3c(c(=O)n1C2)COC(=O)[C@]3(O)CC |  |  | mouse Mrp2(−/−), intestine | intraperitoneal, 50 mg/kg, 24 h |  | tissue concentration | 12400 ± 3290 ng/g |
| CC[C@H](C)[C@H](NC(=O)[C@H](Cc1ccccc1)NC(=O)[C@H](CCC(=O)O)NC(=O)[C@H](CCCCNC(=O)COCCOCCNC(=O)COCCOCCNC(=O)CC[C@H](NC(=O)CCCCCCCCCCCCCCCCC(=O)O)C(=O)O)NC(=O)[C@H](C)NC(=O)[C@H](C)NC(=O)[C@H](CCC(N)=O)NC(=O)CNC(=O)[C@H](CCC(=O)O)NC(=O)[C@H](CC(C)C)NC(=O)[C@H](Cc1ccc(O)cc1)NC(=O)[C@H](CO)NC(=O)[C@H](CO)NC(=O)[C@@H](NC(=O)[C@H](CC(=O)O)NC(=O)[C@H](CO)NC(=O)[C@@H](NC(=O)[C@H](Cc1ccccc1)NC(=O)[C@@H](NC(=O)CNC(=O)[C@H](CCC(=O)O)NC(=O)C(C)(C)NC(=O)[C@@H](N)Cc1cnc[nH]1)[C@@H](C)O)[C@@H](C)O)C(C)C)C(=O)N[C@@H](C)C(=O)N[C@@H](Cc1c[nH]c2ccccc12)C(=O)N[C@@H](CC(C)C)C(=O)N[C@H](C(=O)N[C@@H](CCCNC(=N)N)C(=O)NCC(=O)N[C@@H](CCCNC(=N)N)C(=O)NCC(=O)O)C(C)C |  | 12-lead Holter ECG | healthy humans | subcutaneous, 1.5 mg once weekly, 48 h, steady state | reference: placebo | QTcF change from baseline | -0.4 ms |
| O=C(O)CCC(=O)Nc1ccccc1 | Ubiquitin carboxyl-terminal hydrolase 20, ZnF-UBD domain (USP20, Homo sapiens, UniProt Q9Y2K6) |  |  |  |  | Kd | 817 µM |
| C/C=C/C[C@@H](C)C(=O)[C@H]1C(=O)N[C@@H](C(C)C)C(=O)N(C)CC(=O)N(C)[C@@H](CC(C)C)C(=O)N[C@@H](C(C)C)C(=O)N(C)[C@@H](CC(C)C)C(=O)N[C@@H](C)C(=O)N[C@H](C)C(=O)N(C)[C@@H](CC(C)C)C(=O)N(C)[C@@H](CC(C)C)C(=O)N(C)[C@@H](C(C)C)C(=O)N1C |  |  | Sprague Dawley rat, plasma | intravenous infusion, 0.89 mg/h/kg, 4 h, 4.5 h constant infusion |  | free plasma concentration | 0.431 µg/mL |
| CC(C)=CCC/C(C)=C/CC/C(C)=C/CC[C@@](C)(O)CCC1=C(C)C(=O)C(C)=C(C)C1=O |  |  | human, plasma | oral, dose not given, together with: itraconazole | reference: with over without itraconazole | AUC0-t ratio | 344% |
| CNC(=O)c1c(C)oc2cc(Oc3ncnc4cc(OC)c(OC)cc34)ccc12 |  | population PK model | human, female | oral | reference: male subjects | lower apparent clearance | 17% |
| O=C(O)Cn1cnc2c(oc3ccccc32)c1=O | Ubiquitin carboxyl-terminal hydrolase 49, ZnF-UBD domain (USP49, Homo sapiens, UniProt Q70CQ1) |  |  |  |  | Kd | > 1000 µM |
| C=CCn1c(=O)c2cnc(Nc3ccc(N4CCN(C)CC4)cc3)nc2n1-c1ccc2c(n1)[C@@](O)(CC)CC2 |  |  | A-427, female NOD/SCID mouse xenograft, plasma | oral, 20 mg/kg once daily |  | AUC(0-24) | 3.3 µg·h/mL |
| NCCONC(=O)[C@@H]1CC[C@@H]2CN1C(=O)N2OS(=O)(=O)O |  |  | healthy Chinese male subjects | intravenous, 2 g |  | number of Severe TRAE events | 0 |
| CCN1CCN(Cc2ccc(NC(=O)c3ccc(C)c(NC(=O)c4cncc(-c5cccs5)c4)c3)cc2C(F)(F)F)CC1 |  | LC-MS/MS | C57BL/6 mouse, plasma | intraperitoneal, 20 mg/kg single dose, 6 h |  | mean plasma concentration | 0.139 µg/mL |
| CN1CCCC1CCNS(=O)(=O)c1ccc2c(c1)CN(CC1CCCCC1)CC2 (stereo not shown) |  |  | wild-type mouse, plasma | oral in diet, 0.02% in diet, 6 months |  | Cmin | 0.0171 µg/mL |
| Nc1nc2c(nc([N+](=O)[O-])n2[C@@H]2O[C@H](CO)[C@@H](O)[C@H]2O)c(=O)[nH]1 |  | depurination, RP-HPLC | citrate-phosphate buffer 0.5 mM | 177 min, pH 2, 37 °C |  | nucleoside remaining fraction | 0.716 |
| C[C@@H]1COCCN1c1cc(C2([S@](C)(=N)=O)CC2)nc(-c2cc[nH]c3nccc2-3)n1 |  |  | Japanese advanced solid tumour patients | oral, 160 mg twice daily, any grade |  | Nasopharyngitis incidence | 16.7% |
| Cc1c([C@@H]2COC[C@H](c3cc(Cl)cc(Cl)c3)N2)cnn1-c1ccccc1 |  | shake-flask, 1-octanol/buffer |  | pH 7.4 |  | logD | > 4 |

| Compound | tested on | test | test system | setting | scale | quantity | result |
| --- | --- | --- | --- | --- | --- | --- | --- |
| Cc1cc(C)c(CNC(=O)c2cc(Cl)c3c(c2C)O[C@@](C)([C@H]2CC[C@H](N(C)C)CC2)O3)c(=O)[nH]1 |  | measured: Dizziness | human patients | oral, 200 mg once daily, 1 day onset day 14 |  | patients with TEAE | 4.2% |
| CN(C)CCCN1c2ccccc2CCc2cc(O)ccc21 |  | reverse phase LC, C18 | acetonitrile gradient, 0.1% formic acid | converted from retention time | reference: Valko CHI standards | chromatographic hydrophobicity index | 51.1 |
| CCCCOc1nc(N)c2c(n1)N(Cc1cccc(CN3CCCC3)c1)CC(=O)N2 |  |  | human | oral, 2 mg, drug interaction trial |  | grade 3-4 TEAE | 0% |
| CCc1cc(C(=O)NC)c2nccc(N3CCc4c(cc(Cn5ccnc5)cc4-c4cn(C)nc4C(F)(F)F)C3=O)c2c1 |  |  | Sprague Dawley rats | oral, 100 mg/kg once daily, 7 days |  | serum HDL level | 1.3 ± 0.3 mmol/L |
| COc1cc(-c2nnc(SCC(N)=O)n2C)cc(OC)c1OC |  |  | octanol/buffer | pH 7.4 |  | logD | 0.08 |
| C[C@@H]1CN(c2cccc(-c3ccc4ncnc(Nc5ncco5)c4c3)c2)C[C@H](C)O1 |  |  | human liver microsomes |  |  | CLint | 29 µL/min/mg |
| Cc1cc(-c2nccc3c2ccn3CC(=O)Nc2ccc(-c3cnccn3)cn2)ccn1 |  |  | human | 20 mg once daily, multiple ascending dose |  | general or administration site disorders | 22.2% |
| [O]=[Co].[O]=[Co][O][Co]=[O] |  |  | rat, female, urine, 24-h collection | oral gavage, single, 300 mg/kg (220 mg Co/kg), day 1, vehicle 0.5% HPMC |  | creatinine-corrected cobalt concentration | 0.76 µg/µmol creatinine |
| C[C@@H](Oc1ccc(S(C)(=O)=O)cc1C(=O)N1C[C@@H]2C[C@]2(c2cc(C(F)(F)F)on2)C1)C(F)(F)F |  |  | healthy young humans, plasma | oral, 75 mg single dose |  | %AUC extrapolated | 22.6% |
| OCc1nc2ccc(NCc3ccc(C(F)(F)F)cc3)cc2[nH]1 |  |  | Balb/c mouse, male, kidney | intravenous, 1 mg/kg, 6 h |  | tissue concentration | 59.9 ± 18.7 ng/g |
| Cl.[2H]C([2H])([2H])CC(=O)c1cnc(NC(=O)C2CC2)cc1Nc1cccc(-c2ncn(C([2H])([2H])[2H])n2)c1OC |  | geometric mean | human | 10 mg single dose, fasted, liquid |  | CL/F | 12.3 L/h |
| O=C(Nc1nc2cccc(-c3ccc(CN4CCS(=O)(=O)CC4)cc3)n2n1)C1CC1 |  | measured: anaemia | rheumatoid arthritis patients | oral, 75 mg once daily, 4 weeks, any relatedness |  | patients with adverse event | 4.5% |
| CC(C)(C(=O)N1CCOc2c(C#N)cncc2C1)C(F)F |  |  | human, both sexes | oral, 10 mg single dose |  | subjects with thrombophlebitis TEAE | 0% |
| COc1nc(-c2cc(C)c(N[C@@H](C)c3cc(F)cc(F)c3)nn2)ccc1-n1cnc(C)c1 |  |  | C57BL/6J mice, male, brain | oral, 25 mg/kg daily for 9 days, 4 h after last dose |  | brain concentration | 6760 ng/g |
| CCO[C@H]1CCN(Cc2c(OC)cc(C)c3[nH]ccc23)[C@H](c2ccc(C(=O)O)cc2)C1 |  |  | human mild hepatic impairment, plasma | oral, 200 mg single dose, geometric mean |  | total half-life | 25.4 h |
| O=C1CCc2ccc(OCCCCN3CCN(c4cccc(Cl)c4Cl)CC3)cc2N1 |  | measured: Sedation | patients, CYP2D6 normal metabolizers | dose not given, long-acting oral or depot |  | adverse event incidence | 12% |
| COC(=O)c1ccccc1NC(=O)CSc1nnc(C23C[C@H]4C[C@@H](C2)C[C@@H](C3)C4)n1C |  |  | octanol/buffer | pH 7.4 |  | logD | 3.91 |
| CCn1ncc2c1-c1cnc(N)c(c1)O[C@H](C)c1cc(F)ccc1-c1nn(C)nc1C2 |  |  | female athymic nude mice, sample B PDX | oral, 15 mg/kg twice daily for 5.5 days, 12 h |  | unbound plasma trough concentration | 100 ± 34 nM |
| CCOc1ccc(NC(C)=O)cc1 |  | HPLC C18 retention |  | pH 7.4 | reference: calibration standards | chromatographic hydrophobicity index | 49.3 |
| NC1(C(=O)N[C@@H](CCO)c2ccc(Cl)cc2)CCN(c2nc[nH]c3nccc2-3)CC1 |  |  | metastatic CRPC patients | 320 mg b.i.d., grade 3 to 4, treatment-related, together with: enzalutamide 160 mg daily |  | incidence of Pyrexia | 0% |
| CCn1cc(C(=O)N2CCOCC2)c(=O)c2cc(NC3Cc4ccccc4C3)cnc21 |  |  | human overall, fed, plasma | oral, 900 mg twice daily, day 1, tablet, arithmetic mean |  | half-life | 4.74 h |
| CC(C)(C)c1ccc([C@@H]2COC[C@@H](c3ccc(Cl)cc3)N2)cc1 |  | shake-flask, 1-octanol/buffer |  | pH 7.4 |  | logD | > 4.5 |
| CN(CCC(=O)O)C(=O)c1ccc2c(c1)CC[C@@H]1[C@@H]2CC[C@]2(C)C(c3cncc(F)c3)=CC[C@@H]12 |  |  | premenopausal women, endometriosis pain, serum | 60 mg twice daily, visit 4, median | reference: baseline | direct bilirubin change | 0.2 mg/dL |

For quick reference, copied from above:
| Compound | tested on | test | test system | setting | scale | quantity | result |
| --- | --- | --- | --- | --- | --- | --- | --- |
| COc1ccc(-n2nc(C(N)=O)c3c2C(=O)N(c2ccc(N4CCCCC4=O)cc2)CC3)cc1 |  |  | human, plasma | oral, Base population PK model |  | absorption rate constant | 0.496 ± 0.0226 h⁻¹ |
| CNC(=O)c1c(C)oc2cc(Oc3ncnc4cc(OC)c(OC)cc34)ccc12 |  | population PK model | human, female | oral | reference: male subjects | lower apparent clearance | 17% |
| O=C(O)CCC(=O)Nc1ccccc1 | Ubiquitin carboxyl-terminal hydrolase 20, ZnF-UBD domain (USP20, Homo sapiens, UniProt Q9Y2K6) |  |  |  |  | Kd | 817 µM |
